Literature values, collected from citations in different studies.
Protocols differ between the studies behind these lines. Numbers after ± are the reported error. Converted amounts (≈) assume the structure as drawn.
UniProt Q9BX84, sequence (whole entry, looked up): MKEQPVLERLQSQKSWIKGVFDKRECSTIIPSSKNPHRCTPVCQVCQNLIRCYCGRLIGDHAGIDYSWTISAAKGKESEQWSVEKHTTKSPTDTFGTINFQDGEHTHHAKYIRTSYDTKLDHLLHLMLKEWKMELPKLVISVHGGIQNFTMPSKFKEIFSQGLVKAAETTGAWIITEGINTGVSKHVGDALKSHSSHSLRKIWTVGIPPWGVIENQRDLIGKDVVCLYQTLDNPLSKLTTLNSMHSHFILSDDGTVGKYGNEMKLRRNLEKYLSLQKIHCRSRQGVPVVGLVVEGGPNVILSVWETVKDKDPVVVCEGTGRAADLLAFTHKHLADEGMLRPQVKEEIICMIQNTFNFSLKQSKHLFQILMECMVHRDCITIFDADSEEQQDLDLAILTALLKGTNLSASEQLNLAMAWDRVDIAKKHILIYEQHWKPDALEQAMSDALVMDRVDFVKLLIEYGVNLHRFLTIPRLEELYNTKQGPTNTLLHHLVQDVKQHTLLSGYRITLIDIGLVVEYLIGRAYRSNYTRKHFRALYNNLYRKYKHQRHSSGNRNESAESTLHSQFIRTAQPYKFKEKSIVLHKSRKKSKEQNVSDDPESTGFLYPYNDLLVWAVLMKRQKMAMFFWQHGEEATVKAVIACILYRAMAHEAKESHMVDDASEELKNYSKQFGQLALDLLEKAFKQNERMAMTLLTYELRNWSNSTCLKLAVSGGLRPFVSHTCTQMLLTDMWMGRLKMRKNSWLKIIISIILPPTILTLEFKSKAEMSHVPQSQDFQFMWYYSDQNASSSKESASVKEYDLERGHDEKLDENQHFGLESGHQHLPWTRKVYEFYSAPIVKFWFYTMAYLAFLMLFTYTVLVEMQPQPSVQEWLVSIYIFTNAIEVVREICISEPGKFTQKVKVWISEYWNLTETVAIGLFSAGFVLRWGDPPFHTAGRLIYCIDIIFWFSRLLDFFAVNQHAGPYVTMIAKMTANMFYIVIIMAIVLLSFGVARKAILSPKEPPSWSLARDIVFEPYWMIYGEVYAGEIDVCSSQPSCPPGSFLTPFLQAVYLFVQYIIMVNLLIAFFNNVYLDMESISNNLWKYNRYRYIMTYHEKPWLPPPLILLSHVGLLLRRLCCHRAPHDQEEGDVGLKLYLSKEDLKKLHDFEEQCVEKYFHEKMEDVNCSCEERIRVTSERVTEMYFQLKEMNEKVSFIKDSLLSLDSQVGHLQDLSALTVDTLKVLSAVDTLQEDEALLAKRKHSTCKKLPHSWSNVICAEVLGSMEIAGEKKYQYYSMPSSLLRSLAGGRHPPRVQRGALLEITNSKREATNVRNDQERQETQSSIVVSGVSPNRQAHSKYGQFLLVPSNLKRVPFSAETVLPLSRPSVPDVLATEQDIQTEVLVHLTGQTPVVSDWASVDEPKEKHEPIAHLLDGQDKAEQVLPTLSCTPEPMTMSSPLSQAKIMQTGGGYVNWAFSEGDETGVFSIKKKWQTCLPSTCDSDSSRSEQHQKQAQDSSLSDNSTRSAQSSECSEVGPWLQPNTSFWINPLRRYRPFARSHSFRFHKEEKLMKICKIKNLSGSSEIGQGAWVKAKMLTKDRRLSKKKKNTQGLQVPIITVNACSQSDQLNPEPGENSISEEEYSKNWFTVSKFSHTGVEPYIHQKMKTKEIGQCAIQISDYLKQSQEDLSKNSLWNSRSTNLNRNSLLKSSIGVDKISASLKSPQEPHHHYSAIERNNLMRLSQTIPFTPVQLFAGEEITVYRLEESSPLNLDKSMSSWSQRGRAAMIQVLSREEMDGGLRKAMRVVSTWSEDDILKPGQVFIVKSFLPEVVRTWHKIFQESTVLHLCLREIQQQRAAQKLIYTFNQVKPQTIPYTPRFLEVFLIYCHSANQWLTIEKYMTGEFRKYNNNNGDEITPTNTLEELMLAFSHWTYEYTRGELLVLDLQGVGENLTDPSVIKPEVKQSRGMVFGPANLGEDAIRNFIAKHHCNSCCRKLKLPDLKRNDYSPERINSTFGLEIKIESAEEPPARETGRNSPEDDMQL

| SMILES | tested on | assay | test system | conditions | scale | measurement | value |
| --- | --- | --- | --- | --- | --- | --- | --- |
| CCCCCCCCCCCCOC(=O)c1cc(O)c(O)c(O)c1 | xanthine oxidase | inhibitor |  |  |  | IC50 | 49000 ± 210 nM |
| CCN1CCN(c2cc(N3CCN(CC)CC3)nc(NCCNc3ccnc4cc(Cl)ccc34)n2)CC1 | NR4A2 | binding, radioligand binding |  |  |  | IC50 | 50 nM |
| CCN(CC)CCCCNc1ncc2cc(-c3cc(OC)cc(OC)c3)c(NC(=O)NC(C)(C)C)nc2n1 | VEGFR1-3 | inhibitor |  |  |  | IC50 | 150 nM |
| CCCCCCCCCCCCCCOc1ccccc1NC(=O)c1ccccc1C(=O)O | PTP1B | competitive inhibitor |  |  |  | IC50 | 780 nM |
| CC1(C)S[C@@H]2[C@H](NC(=O)[C@H](N)c3ccccc3)C(=O)N2[C@H]1C(=O)O | Escherichia coli |  | clinical isolate RKI-No_330/16 |  |  | MIC | > 16 mg/L |
| O=C(NCc1ccc(C(F)(F)F)nc1Oc1ccccc1)Nc1cccc2[nH]ncc12 | TRPV1 | calcium flux, antagonist | HEK293 | with: capsaicin |  | IC50 | 9 nM |
| CNC(C)C1CCC(N)C(OC2C(N)CC(N)C(OC3OCC(C)(O)C(NC)C3O)C2O)O1 (centres unmarked) | Escherichia coli |  | clinical isolate RKI-No_314/16 |  |  | MIC | 2 mg/L (≈ 4.19 µM) |
| COCCCC/C(=N\OCCN)c1ccc(C(F)(F)F)cc1 | sigma-2 receptor |  |  | literature value |  | IC50 | 8000 nM |
| CN1[C@@H]2CC[C@H]1C[C@@H](OC(=O)[C@H](CO)c1ccccc1)C2 | acetylcholine receptor |  |  |  |  | IC50 | 7.5 nM |
| CC(C)(F)CCc1cc(C(F)(F)F)ccc1CNC(=O)Nc1cccc2[nH]ncc12 | TRPV1 | calcium flux, antagonist | HEK293 | with: capsaicin |  | IC50 | 6 nM |
| COc1ccc(CNc2c(CO)cnc3c(C4CC4)cc(C#N)cc23)cc1Cl | PDE4 | inhibitor |  |  |  | IC50 | > 10000 nM |
| CN(C)CCCN1c2ccccc2CCc2ccccc21 | sigma-2 receptor |  |  | literature value |  | IC50 | 2000 nM |
| Cc1ccc(Nc2ncnc3sc(Nc4c(Cl)cccc4Cl)nc23)cc1 | TRPV1 | calcium flux, antagonist | HEK293 | with: capsaicin |  | IC50 | 33 nM |
| Nc1cc(C(F)(F)F)c(-c2nc(N3CCOCC3)nc(N3CCOCC3)n2)cn1 | TRPM6 (Homo sapiens, UniProt Q9BX84) | enzyme activity |  | 10 µM | reference: untreated | remaining activity | 85% |
| CC[C@H](C)C(=O)N1CCC(NC(=O)Nc2c(F)cccc2F)CC1 | soluble epoxide hydrolase (rat) | enzyme activity |  |  |  | IC50 | 30000 nM |
| C[C@H](NC(=O)[C@H](CC(=O)NCC(C)(C)C)NC(=O)c1ccc(C(=O)NO)cc1)C(=O)NCc1ccccc1 | proteasome | chymotrypsin-like activity, inhibitor | SEM |  |  | IC50 | 394 nM |
| O=C(NCc1ccc(-c2ccccc2)nc1N1CCCCC1)Nc1cccc2[nH]ncc12 | TRPV1 | calcium flux, antagonist | HEK293 | with: capsaicin |  | IC50 | 14 nM |
| COc1cc2c(Nc3ccc(Cl)c(Cl)c3F)ncnc2cc1OC[C@@H]1C[C@@H]2CN(C)C[C@@H]2C1 | SRC |  |  |  |  | IC50 | 10.3 nM |
| CC(C)C(=O)Nc1nc(-c2ccc(O)cc2O)cs1 | human tyrosinase | inhibitor |  |  |  | IC50 | ~1000 nM |
| COc1ccc(C(CNC(=O)Nc2cccc3cnccc23)Cc2ccccc2)cc1 (centres unmarked) | TRPV1 | calcium flux, antagonist | HEK293 | with: capsaicin |  | IC50 | 14 nM |
| O=S(=O)(Nc1cc(Cl)ccc1SCc1cccc(O)c1)c1cc2ccccc2o1 | CCR2 |  |  | 3D-QSAR training set |  | IC50 | 76 nM |
| O=C(NCc1ccc(C(F)(F)F)cc1Oc1ccccc1)Nc1cccc2[nH]ncc12 | TRPV1 | calcium flux, antagonist | HEK293 | with: capsaicin |  | IC50 | 9 nM |
| CN(CCN)Cc1csc(-c2ccc(C(=N)N)nc2)n1 | CARM1 (PRMT4) | enzyme activity, inhibitor |  |  |  | IC50 | 1640 nM |
| CCN1CCN(Cc2ccc(Nc3nc4ccc(Oc5ccnc(NC(=O)C6CCN(C)CC6)c5)cc4n3C)cc2C(F)(F)F)CC1 | JAK2 (human) | inhibitor |  |  |  | IC50 | 8030 nM |
| O=S(=O)(NCCNCC=Cc1ccc(Br)cc1)c1cccc2cnccc12 | PKA catalytic subunit alpha | Z’-LYTE |  | with: 10 µM ATP |  | IC50 | 18 nM |
| FC(F)(F)c1ccc(Nc2ncnc3nc(-c4ncccc4C(F)(F)F)ccc23)cc1 | TRPV1 | calcium flux, antagonist | HEK293 | with: capsaicin |  | IC50 | 0.83 nM |
